Measurements collected from several papers.
Numbers after ± are the reported error.
Chain of UniProt Q3TKT4 (whole entry, looked up): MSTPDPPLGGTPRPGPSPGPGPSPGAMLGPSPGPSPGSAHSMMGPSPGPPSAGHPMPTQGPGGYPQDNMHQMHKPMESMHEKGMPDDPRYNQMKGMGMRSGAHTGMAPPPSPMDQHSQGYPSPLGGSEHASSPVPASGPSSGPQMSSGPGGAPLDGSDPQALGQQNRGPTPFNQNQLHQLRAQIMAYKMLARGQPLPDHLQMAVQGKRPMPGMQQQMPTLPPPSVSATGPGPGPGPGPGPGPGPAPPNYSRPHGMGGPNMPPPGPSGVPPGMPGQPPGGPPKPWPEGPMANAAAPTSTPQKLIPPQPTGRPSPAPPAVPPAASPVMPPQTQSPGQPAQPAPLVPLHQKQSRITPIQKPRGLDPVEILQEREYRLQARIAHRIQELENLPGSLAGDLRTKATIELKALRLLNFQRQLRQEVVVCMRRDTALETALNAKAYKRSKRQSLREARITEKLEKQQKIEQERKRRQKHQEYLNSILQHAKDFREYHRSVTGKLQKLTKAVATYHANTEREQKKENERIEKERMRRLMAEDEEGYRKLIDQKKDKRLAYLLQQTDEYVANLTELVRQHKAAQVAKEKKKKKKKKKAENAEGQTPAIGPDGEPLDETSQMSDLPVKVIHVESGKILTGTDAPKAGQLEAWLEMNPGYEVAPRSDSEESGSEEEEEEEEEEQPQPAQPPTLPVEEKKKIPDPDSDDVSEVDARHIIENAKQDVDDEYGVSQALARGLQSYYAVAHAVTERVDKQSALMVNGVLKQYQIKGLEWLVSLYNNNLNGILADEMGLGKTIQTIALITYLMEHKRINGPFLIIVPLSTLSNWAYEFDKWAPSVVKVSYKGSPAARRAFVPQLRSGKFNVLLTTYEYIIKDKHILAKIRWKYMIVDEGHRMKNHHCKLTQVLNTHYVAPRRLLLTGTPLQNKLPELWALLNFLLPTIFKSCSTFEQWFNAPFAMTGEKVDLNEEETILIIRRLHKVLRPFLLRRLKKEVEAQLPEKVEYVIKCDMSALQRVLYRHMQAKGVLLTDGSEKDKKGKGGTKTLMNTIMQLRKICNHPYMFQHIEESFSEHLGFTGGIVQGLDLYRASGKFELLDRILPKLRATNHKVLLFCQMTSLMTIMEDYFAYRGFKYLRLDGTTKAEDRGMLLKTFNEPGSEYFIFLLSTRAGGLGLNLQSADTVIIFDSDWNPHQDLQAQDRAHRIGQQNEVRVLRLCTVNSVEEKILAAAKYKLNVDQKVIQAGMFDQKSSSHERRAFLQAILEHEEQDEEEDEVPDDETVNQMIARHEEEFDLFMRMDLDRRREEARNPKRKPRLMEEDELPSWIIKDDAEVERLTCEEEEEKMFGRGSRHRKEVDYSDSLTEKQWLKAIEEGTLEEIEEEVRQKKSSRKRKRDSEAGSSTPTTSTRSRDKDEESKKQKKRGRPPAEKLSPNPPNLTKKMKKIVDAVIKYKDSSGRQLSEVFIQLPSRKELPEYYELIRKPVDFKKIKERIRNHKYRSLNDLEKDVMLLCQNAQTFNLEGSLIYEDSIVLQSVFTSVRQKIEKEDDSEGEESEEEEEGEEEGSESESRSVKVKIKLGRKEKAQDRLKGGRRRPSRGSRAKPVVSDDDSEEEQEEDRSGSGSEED

| Strand | target | assay | test system | conditions | measurement | value |
| --- | --- | --- | --- | --- | --- | --- |
| CGATCATGGAGCCACGAGCTCCCGTTACAG / CTGTAACGGGAGCTAGTGGCTCCATGATCG (dsDNA; blunt, 8-oxoG:2'-fluoro-arabino-A pair) | MUTYH 1-535 S524A (Homo sapiens) | EMSA |  |  | Kd | 1.5 ± 0.1 nM |
| TGCCATAGAATCTCGACTATCGCAAAT (ssDNA) | gene 32 protein 22-301 del1-21 (bacteriophage T4, UniProt P03695) | EMSA | single-stranded DNA | together with: Mg2+ | binding | no binding |
| TCAGTGACCCATCTTGCTGAGTCATGCTAAACCTGTTGA (dsDNA) | NRF2/MAFG (Homo sapiens) | competition EMSA | double-stranded DNA, one strand shown | 500 nM | binding | binds |
| AAGGGGGGCTATAAAAGGGGGTGGGGGCGCGTTCGTCCTCACTCTCTTCCCCTCCATACC (dsDNA) | TBP/GTF2B 1-339; 1-316 (Homo sapiens) | EMSA | double-stranded DNA, one strand shown | PreScission treated | binding | binds |
| TCAGTGACCCATCTTGCTGAGCTCTGCTAAACCTGTTGA (dsDNA) | NRF2/MAFG (Homo sapiens) | competition EMSA | double-stranded DNA, one strand shown | 500 nM | binding | no binding |
| TCTTTTTTTTTTTTTTTCTTTTTTCCTCC (dsDNA) | Smarca4 AT-hook (Mus musculus, UniProt Q3TKT4) | EMSA | double-stranded DNA, one strand shown | together with: Mg2+ 5 mM | Kd | 1800 nM |

Excerpt of the above:
| Strand | target | assay | test system | conditions | measurement | value |
| --- | --- | --- | --- | --- | --- | --- |
| TGCCATAGAATCTCGACTATCGCAAAT (ssDNA) | gene 32 protein 22-301 del1-21 (bacteriophage T4, UniProt P03695) | EMSA | single-stranded DNA | together with: Mg2+ | binding | no binding |
